Results from different studies.
Parts stem from different laboratories: compare values within a part only.

Sample 1 — technique: RNA Bind-n-Seq; form: RNA; sample: in vitro; concentration: not given; baseline: input RNA pool; reading: higher = stronger binding
Target: RING finger protein unkempt homolog, zinc fingers 1-6, GST-SBP tag (UNK, Homo sapiens, UniProt Q9C0B0, residues 30-357)
Setting: RNA with constant flanks, human and mouse sites, ends assumed
Target sequence (chain): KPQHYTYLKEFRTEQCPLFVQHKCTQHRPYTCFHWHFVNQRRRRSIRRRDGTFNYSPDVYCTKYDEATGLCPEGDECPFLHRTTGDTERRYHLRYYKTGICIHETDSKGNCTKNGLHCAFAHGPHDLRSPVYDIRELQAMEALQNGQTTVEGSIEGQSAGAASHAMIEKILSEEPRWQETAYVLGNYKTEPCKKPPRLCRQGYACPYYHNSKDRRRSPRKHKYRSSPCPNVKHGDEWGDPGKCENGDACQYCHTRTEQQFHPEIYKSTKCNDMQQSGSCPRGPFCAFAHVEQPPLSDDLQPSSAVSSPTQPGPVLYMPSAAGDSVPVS
For `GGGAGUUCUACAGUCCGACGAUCACAGAAAAUAGCAGUGCAGUGCUACUCCAGUGGCAUGAAAAGGCCUUAGCUGUAGGAGGACUAGGCUCCAUUAUAAGAGUUCUUACAGCAAGAAAGACUGUUUAAAAAAAAAUCCUGUUACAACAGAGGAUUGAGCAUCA`, the bound/input enrichment was 0.0876 ratio.
`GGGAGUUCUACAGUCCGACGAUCUGCAGGCUGUGCAGCUAUGUCACCCUGCGGGAGGAGUCUCUGCUCAGCCACAUAGAGAGGGACCACAUCACCGCACAGGUGCCCAAUGGCAGCGAGGCCUGUGUGGAGAACGGCAAACCUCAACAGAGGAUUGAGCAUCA` gave a bound/input enrichment of 0.0571 ratio.
`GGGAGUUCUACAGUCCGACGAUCUGUGACUGGUGGAGUGUUGGUGUUAUUCUUUUUGAAAUGUUGGUGGGACAACCUCCUUUCUUGGCACAAACCCCAUUAGAAACACAAAUGAAGGUUAUCAACUGGCAAACUUCUCUUCACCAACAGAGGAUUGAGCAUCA` gave a bound/input enrichment of 0.231 ratio.
For `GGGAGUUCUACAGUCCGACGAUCACUUUUCCAUGCAGAUUUGUGCACAUGUGAGAGGGUGUCCAGUUUGUCUAGUGAUUGUUAUUUAGAGAGUUGGACCACUAUUGUGUGUUGCUAAUCAUUGACUGUAGUCCCAAAAAAGCCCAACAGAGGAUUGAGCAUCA`, the bound/input enrichment was 0.219 ratio.
`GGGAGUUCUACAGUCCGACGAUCAACAAGCAAAACAAAACUUUCCAGCCAUUUUACUGCAGCAGUCUGUGAACUAAAUUUGUAAAUAUGGCUGCACCAUUUUUGUAGGCCUGCAUUGUAUUAUAUACAAGACGUAGGCUUUAACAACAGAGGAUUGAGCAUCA` has a bound/input enrichment of 0.226 ratio.
`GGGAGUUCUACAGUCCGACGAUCCGCUGCCGUGUGGGCCAAUGGGUGCGCAUGGAGAAUGUAACAGUGCUGGGUGAAGAUGUCAUAGUUAAUGAUGAACUGUACCUCAAUGGAGCCAGCGUGCUGCCCCACAAGUCUAUCGGGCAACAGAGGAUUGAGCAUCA` gave a bound/input enrichment of 0.263 ratio.
`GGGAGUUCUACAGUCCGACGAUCCAUGAGGAAAGAACAAUUCUCCCUAUGUCGAGAGCAUUCCGCGGUAAACACCUCUCUUUUGUAGUUCGAUUUCCAAACCAGGGCAGACAGGUUGAUGACUUGGAGGUAUGGUCUCAUACACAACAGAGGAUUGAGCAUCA` gave a bound/input enrichment of 0.149 ratio.
`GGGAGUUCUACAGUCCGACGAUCUUAGGUUCACAUACCUGCCUGCUAGUCGGGCAACAUGAAGUAGGACAGUUCUGUUGAUUUUUUAGGGCCAUACUAAAGGGAAUGAGCUGAAACAGACCUCCUGAUACCUUUGCUUAAUUACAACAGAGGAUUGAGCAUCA` has a bound/input enrichment of 0.163 ratio.

Sample 2 — technique: protein binding microarray; form: double-stranded DNA, one strand shown; sample: in vitro; concentration: not given; baseline: not given; reading: higher = stronger binding
Target: Histone acetyltransferase KAT6A, both winged helices, GST fusion (KAT6A, Homo sapiens, UniProt Q92794, residues 1-181)
Setting: 8-mer, flanks averaged, mean of 2 arrays, mostly near background
Residues (chain): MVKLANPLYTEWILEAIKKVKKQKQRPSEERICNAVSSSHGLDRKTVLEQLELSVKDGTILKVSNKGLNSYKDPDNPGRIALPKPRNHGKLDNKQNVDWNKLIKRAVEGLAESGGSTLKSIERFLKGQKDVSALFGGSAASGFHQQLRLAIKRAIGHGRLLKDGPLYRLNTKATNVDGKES
For `CCAGCTTC`, the E-score was -0.185.
With `CGGATCCC` the E-score was 0.18.
With `CGGTTGGC` the E-score was 0.123.
The E-score of `AGGAGTAT` is reported as -0.296.
For `ACTAAGAA`, the E-score was 0.0477.
`CTAAAGGA` has an E-score of -0.0213.
With `GTTTGTCA` the E-score was 0.0176.
`GGCAGGTA` gave an E-score of -0.0106.
With `ACAAACGT` the E-score was -0.0755.
The E-score of `ACAGATGT` is reported as -0.0753.
The E-score of `GAACGATC` is reported as 0.121.
`ATACATGC` gave an E-score of -0.0945.
For `CATCGCAA`, the E-score was -0.0532.
With `GTGGAACA` the E-score was 0.0238.
The E-score of `AAAACACC` is reported as 0.0264.
The E-score of `TGATCGAA` is reported as -0.0236.
`GTGACCCA` gave an E-score of -0.195.
`ACCTACGT` gave an E-score of -0.125.
`ATAGAATA` gave an E-score of -0.0529.
`CCCAAGGG` gave an E-score of -0.17.
With `AACCCTAA` the E-score was -0.13.

Sample 3 — technique: RNA Bind-n-Seq; form: RNA; sample: in vitro; concentration: 365 nM; baseline: no-protein control; reading: higher = stronger binding
Target: RNA binding protein fox-1 homolog 2, RRM domain, GST-SBP tag (RBFOX2, Homo sapiens, UniProt O43251-10, residues 100-194)
Setting: natural RNA segment, single round, ends assumed
Residues (chain): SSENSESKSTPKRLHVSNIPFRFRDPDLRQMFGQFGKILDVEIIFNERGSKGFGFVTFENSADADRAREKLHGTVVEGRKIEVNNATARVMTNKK
`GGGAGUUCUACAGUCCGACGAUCGUUCCCCAGGGGAUCUCUGGGAAAGACACUACCGCAGCCACCGGACUCUUGGCGGAUCGGUCCAGUGGGUAGAGGGUUUGAUCAACAGAGCCUCACCCUCUCCACCUUUCUGGAAUUCUCGGGUGCCAA`: “RBNS enrichment (R)” 0.267.
`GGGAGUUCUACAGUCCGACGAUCAUCACACCAUUAUUCCUUAGAAGUAAUUACAUGUGUUCUAACACAUUUGAGACAGGGUUGGACUCCCAUUUCUCAUCCGAGAAAUUACUUAACCCUUCCUGGCGCUGUACUGGAAUUCUCGGGUGCCAA`: “RBNS enrichment (R)” 0.354.
`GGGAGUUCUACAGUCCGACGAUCUGUACGCACAGUCUGUGCUGCAUGUCUGUCACCCAUACGCAGUCUCAAUCAUGGCCUUCACUGAGUGCUUUUGAGAUCCCAGUGCUAAUGUUUUAACUGCCUUUCUGUUGUGGAAUUCUCGGGUGCCAA` — result for “RBNS enrichment (R)”: 0.249.
For `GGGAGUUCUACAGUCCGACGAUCUUAAAAUCGCUUGUAAAUGAGGGCAUACAAGCAUUUGCAACAAAUAUUCAAAUAGAGGCUCACAGCGGCAUAAGCUGGACUUUGUCGCCACUAGAUGACAAGAUGUUAUAUGGAAUUCUCGGGUGCCAA`, “RBNS enrichment (R)” read 0.675.
`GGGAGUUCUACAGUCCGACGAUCGGGAAUGAAUACCUGUUUGGUCCAAACUUACUGUAUCAUAAUGCUGUAUAUGUUGAAAACGUAAUACCUGUUAAUGUCCUAAUGAAUCACGUUUUGCAGAAAACACCGUAUGGAAUUCUCGGGUGCCAA` — result for “RBNS enrichment (R)”: 0.332.
`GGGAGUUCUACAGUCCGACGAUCCAGUAUGAUGUUUCUAUUUUCCAAUACUGGUUCCCUAACGGUCAACAUUUCUUCUCCCAACUAAAAAUGUAAGAAGAAAAAAAAAUUUUUUUCUUUUUCUCUUUUUUUUUUGGAAUUCUCGGGUGCCAA` — result for “RBNS enrichment (R)”: 0.678.
`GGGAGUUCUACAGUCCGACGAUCUGGCCUCUGAAGAAGGUGACUCUUCAGGUAAGACUGAUGGAGGCUACACCGACAAACCGCAGACACGCAGGAUCUGCUCAGAGAUUGCAGAAGAGCGUGGCCUCUCUUAUUGGAAUUCUCGGGUGCCAA` — result for “RBNS enrichment (R)”: 0.594.
`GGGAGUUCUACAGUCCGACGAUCGAGAAACUAAUCAAAGACUAAUCUCUGUUGGAGGUUGGGAAUAAUGUUUUGCCACUUCUGCAGACUGAGAGACGUGUCAUUGGACAUGUGUAACCAUUUGAUAUCUGAGCUGGAAUUCUCGGGUGCCAA`: “RBNS enrichment (R)” 0.234.

Sample 4 — technique: RNA Bind-n-Seq; form: RNA; sample: in vitro; concentration: 1 µM; setting: whole 134-nt RNA, ends assumed; together with: 150 mM KCl; baseline: input library; reading: higher = stronger binding
Target: Ras GTPase-activating protein-binding protein 1, C-terminal RGG region (G3BP1, Homo sapiens, UniProt Q13283)
Chain of UniProt Q13283 (whole entry, looked up): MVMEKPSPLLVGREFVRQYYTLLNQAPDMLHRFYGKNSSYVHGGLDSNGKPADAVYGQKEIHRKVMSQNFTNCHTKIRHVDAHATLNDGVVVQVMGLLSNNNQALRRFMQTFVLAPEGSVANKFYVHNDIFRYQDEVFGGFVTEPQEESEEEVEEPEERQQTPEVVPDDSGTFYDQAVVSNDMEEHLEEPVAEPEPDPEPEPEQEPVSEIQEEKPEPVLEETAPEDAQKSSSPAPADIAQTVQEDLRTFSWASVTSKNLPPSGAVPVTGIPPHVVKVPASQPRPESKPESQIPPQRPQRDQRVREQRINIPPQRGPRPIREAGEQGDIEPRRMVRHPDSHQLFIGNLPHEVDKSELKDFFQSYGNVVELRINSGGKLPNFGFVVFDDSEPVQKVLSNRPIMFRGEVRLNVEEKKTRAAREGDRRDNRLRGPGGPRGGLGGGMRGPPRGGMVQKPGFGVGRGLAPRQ
With `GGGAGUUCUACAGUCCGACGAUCUUAGGCACUUGUUGGGCUCAUCACCGUUGUGUGGAGUGGUCACUAGGAGUAUGCCAGAUGGAAGAACCAUUGUUAGUGAACGUGGACAAAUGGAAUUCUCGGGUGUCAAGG` the log2 enrichment was -1.77.
With `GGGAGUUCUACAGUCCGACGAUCAAGUCCUGUGCUACACAUCGUAUGUACCGAAUCGGAAAAAGGAAAAAGGAAAAAGGGAAAGUAUUAUGUUACGCCGUUCGGAUCUGCACUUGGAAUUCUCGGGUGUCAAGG` the log2 enrichment was -1.92.
`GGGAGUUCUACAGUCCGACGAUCUAGGAGGUGGAUUUUGUUUAUUUUUUUAGCUCAUUUCCAGGGGUGGGAAUUUUUUUUUAAUAUGUGUCAUGAAUAAAGUUGUUUUUGAAAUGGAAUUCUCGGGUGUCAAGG` gave a log2 enrichment of 3.43.
`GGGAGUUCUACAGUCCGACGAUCUGGCCCAGGUGGCAUGCGGGGAGGAAGAGGUGGCCUCAUGGAUCGUGGUGGUCCCGGUGGAAUGUUCAGAGGUGGCCGUGGUGGAGACAGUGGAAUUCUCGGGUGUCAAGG` has a log2 enrichment of 1.91.
The log2 enrichment of `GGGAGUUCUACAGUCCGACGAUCGCAGGAAGUAAAAACAAAUGGAAAUGCUUCGGAUAGUGGCAGGGGUGGGGGUUGCUAAGGAAAGGGUGGGAUGAGAGUGGGUAAAGAGUUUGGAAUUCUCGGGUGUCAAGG` is reported as 1.77.
`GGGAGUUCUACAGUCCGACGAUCUGGGAGGUGGAUUUUGUUUAUUUUUUUAGCUCGUUUCCAGGGGUGGGAAUUUUUUUUUAAUAUGUGUCAUGAAUAAAGUUGUUUUUGAAAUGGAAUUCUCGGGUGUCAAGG` gave a log2 enrichment of 3.64.
With `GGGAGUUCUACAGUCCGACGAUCUGGCCCUGGUGGCAUGCGGGGAGGAAGUGGUGGCCUCAUGGAUCGUGGUGGUCCCGGUGGAAUGUUCAGAGGUGGCCGUGGUGGAGACAGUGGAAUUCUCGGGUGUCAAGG` the log2 enrichment was 1.65.
The log2 enrichment of `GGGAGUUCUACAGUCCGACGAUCUGGCCCUGGUGGCAUGCGGGGAGGAAGAGGUGGCCUCAUGGAUCGUGGUGGUCCCGGUGGAAUGUUCAGAGGUGGCCGUGGUGGACACAGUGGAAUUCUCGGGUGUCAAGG` is reported as 3.61.
`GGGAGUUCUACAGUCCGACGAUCUCCUGUGCUACACAUCGUAUGUACCGAAUCAAACCCAAAUUUUUUUAAAUUUUUUUAAAAAAGUAUUAUGUUACGCCGUUCGGAUCUGCAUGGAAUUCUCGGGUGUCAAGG` has a log2 enrichment of -0.864.

Some of these lines once more (sample 2):
`ACCTACGT` gave an E-score of -0.125.
`ATAGAATA` gave an E-score of -0.0529.
`CCCAAGGG` gave an E-score of -0.17.
